Measured values collected from several papers.
Lines come from different studies, so protocols differ.
Method: steady-state kinetics
B1: enzyme (Rattus norvegicus, UniProt P06757); chain STAGKVIKCKAAVLWEPHKPFTIEDIEVAPPKAHEVRIKMVATGVCRSDDHAVSGSLFTPLPAVLGHEGAGIVESIGEGVTCVKPGDKVIPLFSPQCGKCRICKHPESNLCCQTKNLTQPKGALLDGTSRFSCRGKPIHHFISTSTFSQYTVVDDIAVAKIDAAAPLDKVCLIGCGFSTGYGSAVQVAKVTPGSTCAVFGLGGVGLSVVIGCKTAGAAKIIAVDINKDKFAKAKELGATDCINPQDYTKPIQEVLQEMTDGGVDFSFEVIGRLDTMTSALLSCHSACGVSVIVGVPPSAQSLSVNPMSLLLGRTWKGAIFGGFKSKDAVPKLVADFMAKKFPLEPLITHVLPFEKINEAFDLLRAGKSIRTVLTF
B2: UGP (Trypanosoma brucei, UniProt D3HTY9); chain MPLNPPSAFSGAALACLEKMQASGVEEKCIHIFLIQHALVRKGETGYIPEKSISPVESLPFLQGIETKGENTALLRQAVVLKLNGGLGTGMGLNGPKSLLQVKNGQTFLDFTALQLEHFRQVRNCNVPFMLMNSFSTSGETKNFLRKYPTLYEVFDSDIELMQNRVPKIRQDNFFPVTYEADPTCEWVPPGHGDVYTVLYSSGKLDYLLGKGYRYMFISNGDNLGATLDVRLLDYMHEKQLGFLMEVCRRTESDKKGGHLAYKDVIDETTGQTRRRFVLRESAQCPKEDEDSFQNIAKHCFFNTNNIWINLMELKKMMDEQLGVLRLPVMRNPKTVNPQDSQSTKVYQLEVAMGAAISLFDRSEAVVVPRERFAPVKTCSDLLALRSDAYQVTEDQRLVLCEERNGKPPAIDLDGEHYKMIDGFEKLVKGGVPSLRQCTSLTVRGLVEFGADVSVRGNVVIKNLKEEPLIIGSGRVLDNEVVVVE
B3: enzyme (Metarhizium robertsii, UniProt E9F050); chain MGSTSEKPLLLFTSFPGEGHTNPVLAIAKHLIQRGHTVAYLSTSRYREKILSIGAEFLSAEWPIPGLDPQAGTALQSMPIGVGRFAYLLIHIFYKWLVLRVDAVSDALEFLRRREPGREIIVIEDILNMSTMPYRYGRPLPAGFNTMPKTVGISPVPLMLQSQDTAPFMLGLPPDASESGRLRNKALNKLVNEGPMKPMVDVWKEVMTQCGCTVTPEGSPLNACFDAYDATFMLCSPSLEYPISDLPPHVRFAGCLPRRGIDAHTKHPAWWSEVTDTAPSTGPRTTKIVFVSQGTVSTNWNELVMPTLAALAGRDDTLVIAALGLPGAILPEGFDVPSNARVADYVAYDAILPYADVFVSNAGYGAFGHAVMNGVPAIFAGETEEKPEVAMRAEWAGFAYNLKTQTPSADQIRDAVDAVFADDRYRVRAGELRRENEEMDALGMIERQISSVPWVVNGDT
B4: enzyme (Oryza sativa, UniProt Q6Z955); chain MMLAYMDHAAAAAEPDAGAEPAVAAVDAAEFAAAMDFGGLVSARPAAVVRPASSDDVASAIRAAARTAHLTVAARGNGHSVAGQAMARGGLVLDMRALPRRMQLVVAPSGEKFADVPGGALWEEVLHWAVSKHGLAPASWTDYLRLTVGGTLSNGGVSGQSFRYGPQVSNVAQLEVVTGDGECHVCSRSADPDLFFAVLGGLGQFGVITRARIPLSPAPQTVRWTRVVYASFADYAADAEWLVTRPPHEAFDYVEGFAFVRSDDPVNGWPTVPIPDGAHFDASLLPANAGPVLYCLEVALYQRGGGGDGGGDDMDKRVGEMMRQLKYVRGLEFAAGVGYVDFLSRVNRVEDEARRNGSWAAPHPWLNLFISSRDIAAFDRAVLNGMLADGVDGPMLIYPMLKSKWDPATSVALPNGEIFYLVALLRFCRPYPGGGPPVDELVAQNNAIIDACRSNGYDYKIYFPSYHAQSDWSRHFGAKWSRFVDRKARYDPLAILAPGQNIFARTPSSVAAAAAVIV
B5: cyc1 F198L (Streptomyces coelicolor, UniProt Q9K499); chain MHAFPHGTTATPTAIAVPPSLRLPVIEAAFPRQLHPYWPKLQETTRTWLLEKRLMPADKVEEYADGLCYTDLMAGYYLGAPDEVLQAIADYSAWFFVWDDRHDRDIVHGRAGAWRRLRGLLHTALDSPGDHLHHEDTLVAGFADSVRRLYAFLPATWNARFARHFHTVIEAYDREFHNRTRGIVPGVEEYLELRRLTLAHWIWTDLLEPSSGCELPDAVRKHPAYRRAALLSQEFAAWYNDLCSLPKEIAGDEVHNLGISLITHHSLTLEEAIGEVRRRVEECITEFLAVERDALRFADELADGTVRGKELSGAVRANVGNMRNWFSSVYWFHHESGRYMVDSWDDRSTPPYVNNEAAGEK
B6: protein (Sulfurisphaera tokodaii, UniProt Q96XE7); chain MIILAFDIFGTVLDTSTVIQEFRNKQLEYTWLLTIMGKYVEFEEITKITLRYILKVRGEESKFDEELNKWKNLKAYEDTKYLKEISEIAEVYALSNGSINEVKQHLERNGLLRYFKGIFSAESVKEYKPSPKVYKYFLDSIGAKEAFLVSSNAFDVIGAKNAGMRSIFVNRKNTIVDPIGGKPDVIVNDFKELYEWILRYK
B7: FMO3 E158K (Homo sapiens, UniProt P31513); chain GKKVAIIGAGVSGLASIRSCLEEGLEPTCFEKSNDIGGLWKFSDHAEEGRASIYKSVFSNSSKEMMCFPDFPFPDDFPNFMHNSKIQEYIIAFAKEKNLLKYIQFKTFVSSVNKHPDFATTGQWDVTTERDGKKESAVFDAVMVCSGHHVYPNLPKKSFPGLNHFKGKCFHSRDYKEPGVFNGKRVLVVGLGNSGCDIATELSRTAEQVMISSRSGSWVMSRVWDNGYPWDMLLVTRFGTFLKNNLPTAISDWLYVKQMNARFKHENYGLMPLNGVLRKEPVFNDELPASILCGIVSVKPNVKEFTETSAIFEDGTIFEGIDCVIFATGYSFAYPFLDESIIKSRNNEIILFKGVFPPLLEKSTIAVIGFVQSLGAAIPTVDLQSRWAAQVIKGTCTLPSMEDMMNDINEKMEKKRKWFGKSETIQTDYIVYMDELSSFIGAKPNIPWLFLTDPKLAMEVYFGPCSPYQFRLVGPGQWPGARNAILTQWDRSLKPMQTRVVGRLQKPCFFFHWLKLFAIPILLIAVFLVLT
B8: GTPBP3 A162P (Homo sapiens, UniProt Q969Y2); chain TRRSSGAPAPGSGATIFALSSGQGRCGIAVIRTSGPASGHALRILTAPRDLPLARHASLRLLSDPRSGEPLDRALVLWFPGPQSFTGEDCVEFHVHGGPAVVSGVLQALGSVPGLRPAEAGEFTRRAFANGKLNLTEVEGLPDLIHAETEAQRRQALRQLDGELGHLCRGWAETLTKALAHVEAYIDFGEDDNLEEGVLEQADIEVRALQVALGAHLRDARRGQRLRSGVHVVVTGPPNAGKSSLVNLLSRKPVSIVSPEPGTTRDVLETPVDLAGFPVLLSDTAGLREGVGPVEQEGVRRARERLEQADLILAMLDASDLASPSSCNFLATVVASVGAQSPSDSSQRLLLVLNKSDLLSPEGPGPGPDLPPHLLLSCLTGEGLDGLLEALRKELAAVCGDPSTDPPLLTRARHQHHLQGCLDALGHYKQSKDLALAAEALRVARGHLTRLTGGGGTEEILDIIFQDFCVGK
B9: PUT2 (Saccharomyces cerevisiae, UniProt P07275); chain MLSARCLKSIYFKRSFSQLGHIKPPKHIRNEPVKPFRNIDLKDWDLLRASLMKFKSSSLEVPLVINGERIYDNNERALFPQTNPANHQQVLANVTQATEKDVMNAVKAAKDAKKDWYNLPFYDRSAIFLKAADLISTKYRYDMLAATMLGQGKNVYQAEIDCITELSDFFRYYVKYASDLYAQQPVESADGTWNKAEYRPLEGFVYAVSPFNFTAIAANLIGAPALMGNTVVWKPSQTAALSNYLLMTVLEEAGLPKGVINFIPGDPVQVTDQVLADKDFGALHFTGSTNVFKSLYGKIQSGVVEGKYRDYPRIIGETGGKNFHLVHPSANISHAVLSTIRGTFEFQGQKCSAASRLYLPESKSEEFLSDMFGILQSQNVVPMNTSASPISGGNLRGFMGPVIHEQSFDKLVKVIEDAKKDPELEILYGGQYDKSQGWFVGPTVIKAKRPDHPYMSTEFFGPILTVYEYPDTEFNEICDIIDNTSQYALTGAIFAKDRKAIEYADEKLKFSAGNFYINDKCTGAVVSQQWFGGARMSGTDDKAGGPNILSRFVSIRNTKENFYELTDFKYPSNYE
B10: PhnY (uncultured bacterium HF130_AEPn_1, UniProt D0E8I4); chain MSYFTQEQKTQWKDNGFVHLKGFLNEALAQDIKDWTQELYEWEEAPGKWMKYFETSSDTGERLLCRVENFIDYHKGIKGFLCGEMIYGMVSELMGEQAVLFKEKINFKYPGGAGFAYHQDAPAFTSFGQKYHITMMVSVDASNEENGCLRMAHGFSEEKTLEQEPDGTVCKKLAAKLDWRPLETGPGDLVLFNSYVPHYSEANTSDRSRRAMFITYNRLSEGEKRLDYFKDKREKFPPEAERIEGKDYSSAESLYNLGNPIK
B11: protein (Trichoderma virens, UniProt G9MQB8); chain GQVPVSVNYHFSRKCNKECLFCFHTATTSHVEKPENAKRGLTLLKQAGMKKINFAGGEPFLYPKFLGEMIDFCKETLQLESVSIVTNGSLVKEQFLQKHGRNIDILAVSCDSFNEATNIKIGRGSGDNVQKLYEIGSWCQKYDIKFKLNTVVNKFNHLEDMNDHLNALQPFRWKCFQVLIVTGENDSDKTLRNAHSLTISDDEFDRFCERHSSQTCLVPEPNRLMAKSYLILDEYMRFLDRNGQQPSKSILEVGVQQALQAVFWDEEAFVERGGIYDWNKSSCSSDSKDLEW
Chain of UniProt P49419 (whole entry, looked up): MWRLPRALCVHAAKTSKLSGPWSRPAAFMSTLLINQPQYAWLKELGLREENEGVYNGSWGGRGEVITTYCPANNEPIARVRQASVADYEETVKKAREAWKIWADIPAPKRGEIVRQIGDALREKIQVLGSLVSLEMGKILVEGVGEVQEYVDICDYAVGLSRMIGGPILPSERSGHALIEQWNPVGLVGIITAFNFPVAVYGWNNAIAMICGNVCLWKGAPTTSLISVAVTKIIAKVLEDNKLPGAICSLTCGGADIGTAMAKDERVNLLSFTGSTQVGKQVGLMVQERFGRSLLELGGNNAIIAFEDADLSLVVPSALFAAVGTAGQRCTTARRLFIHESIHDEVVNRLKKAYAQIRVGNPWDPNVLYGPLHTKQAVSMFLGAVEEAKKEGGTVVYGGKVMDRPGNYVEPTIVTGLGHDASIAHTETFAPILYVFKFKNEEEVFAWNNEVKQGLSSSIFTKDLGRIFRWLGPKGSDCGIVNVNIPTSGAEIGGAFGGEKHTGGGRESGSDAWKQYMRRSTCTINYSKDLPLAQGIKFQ

`enzyme (Scutellaria baicalensis, UniProt A0A146AUQ2)` gave a Km of 172 µM (O=C(O)/C=C/c1ccccc1; pH 7.8, apparent).
`B1 (enzyme)` gave a Km of 540 µM (OC1CCCCC1; pH 7.3, 37 °C).
`B2 (UGP)` has a Km of 122 µM (O=P(O)(O)O[C@H]1O[C@H](CO)[C@@H](O)[C@H](O)[C@H]1O; pH 7.2, apparent).
The Km of `B3 (enzyme)` is reported as 110 µM (O=c1ccn([C@@H]2O[C@H](COP(=O)(O)OP(=O)(O)O[C@H]3OC[C@@H](O)[C@H](O)[C@H]3O)[C@@H](O)[C@H]2O)c(=O)[nH]1; pH 7.5, 30 °C).
The Km of `B4 (enzyme)` is reported as 36.1 µM (C/C(=C\CNc1ncnc2[nH]cnc12)CO; pH 9.5, 40 °C, apparent).
With `ALDH7A1 (Homo sapiens, UniProt P49419)` the Km was 600 µM (N[C@@H](CCCC=O)C(=O)O; pH 8, 20 °C, added: NAD+ 2.5 mM).
`B5 (cyc1 F198L)` gave a Km of 4.2 µM (CC(C)=CCC/C(C)=C/CC/C(C)=C/CO[P@@](=O)(O)OP(=O)(O)O; pH 6.5, 30 °C, added: MgCl2 10 mM).
For `protein (Actinidia deliciosa, UniProt C7SHN9)`, the Km was 9.5 µM (CC(C)=CCC/C(C)=C/CC/C(C)=C/CO[P@@](=O)(O)OP(=O)(O)O; pH 7.5, added: FPP 1-100 µM).
The Km of `B6 (protein)` is reported as 1250 µM (C[C@H](Cl)C(=O)O; pH 9.5, 70 °C).
`B7 (FMO3 E158K)` has a Km of 1600 µM (CN1CCC[C@H]1c1cccnc1; HEK293 microsomes; 37 °C, not purified, added: NADPH regenerating system).
`B8 (GTPBP3 A162P)` gave a Km of 91 µM (Nc1nc2c(ncn2[C@@H]2O[C@H](COP(=O)(O)OP(=O)(O)OP(=O)(O)O)[C@@H](O)[C@H]2O)c(=O)[nH]1; pH 8, 37 °C, KCl 300 mM).
`B9 (PUT2)` has a Km of 104 µM (O=C(O)[C@@H]1CCC=N1; pH 7.5, 20 °C).
The Km of `B10 (PhnY)` is reported as 487 µM (NCCP(=O)(O)O; apparent, two-enzyme system, added: O2, alpha-ketoglutarate, Fe(II)).
`B11 (protein)` gave a Km of 2.4 µM (Nc1ccn([C@@H]2O[C@H](COP(=O)(O)OP(=O)(O)OP(=O)(O)O)[C@@H](O)[C@H]2O)c(=O)n1; pH 7.5, KCl 150 mM, added: SAM 1 mM, dithionite 5 mM).

Excerpt of the above:
With `ALDH7A1 (Homo sapiens, UniProt P49419)` the Km was 600 µM (N[C@@H](CCCC=O)C(=O)O; pH 8, 20 °C, added: NAD+ 2.5 mM).
`B5 (cyc1 F198L)` gave a Km of 4.2 µM (CC(C)=CCC/C(C)=C/CC/C(C)=C/CO[P@@](=O)(O)OP(=O)(O)O; pH 6.5, 30 °C, added: MgCl2 10 mM).
